# Measured values pooled from the literature.
# Numbered parts are unrelated; each lists some results of a single study.

# Sample 1 — effect on: enzyme activity; action: inhibitor; concentration: 77 µM
# Target: DNA polymerase theta, ATPase domain (POLQ, Homo sapiens, UniProt O75417)
# Sequence of UniProt O75417 (whole entry, unmodified, looked up): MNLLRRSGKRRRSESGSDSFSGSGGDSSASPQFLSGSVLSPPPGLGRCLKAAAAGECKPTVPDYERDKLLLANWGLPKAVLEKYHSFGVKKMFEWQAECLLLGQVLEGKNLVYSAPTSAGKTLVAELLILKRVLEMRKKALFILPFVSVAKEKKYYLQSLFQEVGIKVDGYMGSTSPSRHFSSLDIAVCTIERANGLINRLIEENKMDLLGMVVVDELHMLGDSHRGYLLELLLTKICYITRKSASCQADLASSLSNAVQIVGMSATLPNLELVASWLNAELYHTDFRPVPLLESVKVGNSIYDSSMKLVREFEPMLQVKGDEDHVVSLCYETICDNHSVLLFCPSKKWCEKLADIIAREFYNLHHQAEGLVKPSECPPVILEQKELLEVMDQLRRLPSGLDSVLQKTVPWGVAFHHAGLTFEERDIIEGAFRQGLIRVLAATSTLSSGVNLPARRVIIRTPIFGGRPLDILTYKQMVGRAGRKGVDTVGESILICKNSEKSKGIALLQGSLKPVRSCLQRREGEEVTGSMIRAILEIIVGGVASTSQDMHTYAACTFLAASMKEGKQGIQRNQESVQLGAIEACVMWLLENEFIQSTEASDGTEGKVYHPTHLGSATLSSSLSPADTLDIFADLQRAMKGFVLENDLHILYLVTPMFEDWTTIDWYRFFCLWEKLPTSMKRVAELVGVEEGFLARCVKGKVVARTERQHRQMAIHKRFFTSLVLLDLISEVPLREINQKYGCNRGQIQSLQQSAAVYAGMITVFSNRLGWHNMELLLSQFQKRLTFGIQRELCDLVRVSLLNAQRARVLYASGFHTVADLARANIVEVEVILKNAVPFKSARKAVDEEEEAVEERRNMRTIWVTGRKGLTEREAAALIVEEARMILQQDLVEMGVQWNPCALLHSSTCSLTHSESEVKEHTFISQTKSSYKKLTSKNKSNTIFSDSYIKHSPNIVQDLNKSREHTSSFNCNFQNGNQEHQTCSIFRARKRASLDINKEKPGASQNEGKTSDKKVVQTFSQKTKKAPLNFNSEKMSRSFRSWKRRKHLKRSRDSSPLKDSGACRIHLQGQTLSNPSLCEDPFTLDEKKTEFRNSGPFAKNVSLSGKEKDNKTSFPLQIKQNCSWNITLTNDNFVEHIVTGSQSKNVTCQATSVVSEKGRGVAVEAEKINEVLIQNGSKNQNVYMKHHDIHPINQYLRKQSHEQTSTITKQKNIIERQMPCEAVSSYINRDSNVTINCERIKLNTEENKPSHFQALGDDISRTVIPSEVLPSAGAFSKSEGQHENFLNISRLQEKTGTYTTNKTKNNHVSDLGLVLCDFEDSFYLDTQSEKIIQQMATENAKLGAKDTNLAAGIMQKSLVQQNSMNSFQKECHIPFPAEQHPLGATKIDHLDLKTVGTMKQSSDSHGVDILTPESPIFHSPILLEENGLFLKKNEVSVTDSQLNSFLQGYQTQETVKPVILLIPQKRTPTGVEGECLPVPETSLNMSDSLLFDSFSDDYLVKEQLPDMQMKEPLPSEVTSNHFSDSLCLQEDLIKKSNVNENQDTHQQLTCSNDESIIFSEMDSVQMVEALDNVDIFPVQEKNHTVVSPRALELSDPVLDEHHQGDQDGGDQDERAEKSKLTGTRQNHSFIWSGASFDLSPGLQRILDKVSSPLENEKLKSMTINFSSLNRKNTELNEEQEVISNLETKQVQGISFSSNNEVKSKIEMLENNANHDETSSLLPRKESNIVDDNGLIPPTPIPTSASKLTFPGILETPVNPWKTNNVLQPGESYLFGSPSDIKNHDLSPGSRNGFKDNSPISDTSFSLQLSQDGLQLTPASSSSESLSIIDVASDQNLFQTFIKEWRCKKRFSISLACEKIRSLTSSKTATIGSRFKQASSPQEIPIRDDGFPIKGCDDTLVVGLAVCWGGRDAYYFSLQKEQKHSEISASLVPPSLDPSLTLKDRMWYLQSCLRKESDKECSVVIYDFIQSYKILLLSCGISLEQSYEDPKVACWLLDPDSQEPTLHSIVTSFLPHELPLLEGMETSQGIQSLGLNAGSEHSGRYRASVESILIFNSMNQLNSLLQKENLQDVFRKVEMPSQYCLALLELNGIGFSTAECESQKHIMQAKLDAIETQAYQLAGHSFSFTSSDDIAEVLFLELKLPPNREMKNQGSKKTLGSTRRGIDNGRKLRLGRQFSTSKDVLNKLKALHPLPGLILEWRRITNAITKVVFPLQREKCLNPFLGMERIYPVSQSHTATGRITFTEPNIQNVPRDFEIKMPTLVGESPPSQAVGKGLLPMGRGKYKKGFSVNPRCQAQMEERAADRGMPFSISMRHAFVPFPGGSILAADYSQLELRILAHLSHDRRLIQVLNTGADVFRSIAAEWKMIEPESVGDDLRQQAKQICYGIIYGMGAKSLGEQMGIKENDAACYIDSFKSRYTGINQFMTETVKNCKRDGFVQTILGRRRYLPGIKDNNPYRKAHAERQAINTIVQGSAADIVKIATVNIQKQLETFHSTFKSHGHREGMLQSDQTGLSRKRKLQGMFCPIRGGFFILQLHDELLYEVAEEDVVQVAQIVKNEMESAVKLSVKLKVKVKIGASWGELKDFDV
SMILES,remaining activity [%]
COc1ccc(C(=O)OC2C[C@H]3CC[C@@H](C2)N3C)cc1OC (stereo partly drawn),99.3
CCN(CC)c1ncnc2c1ncn2[C@@H]1O[C@H](COP(=O)(O)OP(=O)(O)C(Br)(Br)P(=O)(O)O)[C@@H](O)[C@H]1O,98.1
CCCN(CCC)[C@H]1CCc2c(F)ccc(O)c2C1,99.9
C=C1C/C(=C/C)C(=O)O[C@@H]2CCN3CC=C(COC(=O)[C@]1(C)O)[C@H]23,101

# Sample 2 — cell line: mouse MPNST tumor cells; method: high-content immunofluorescence imaging; refers to: nuclear SOX9; concentration: 10 µM; time: 12 h; setting: mean of 2 replicates; baseline: DMSO control; reading: higher = more nuclear SOX9
SMILES,nuclear SOX9 intensity
O=C(Oc1ccc([N+](=O)[O-])cc1)N1CCN(Cc2cccc(Oc3ccccc3)c2)CC1,98.1 % of DMSO
CC(N)C(O)c1ccccc1 (stereo not drawn),109 % of DMSO
C[C@]12CC[C@H](O)C[C@H]1CC[C@@H]1[C@@H]2C[C@@H](O)[C@]2(C)[C@@H](C3=CC(=O)OC3)CC[C@]12O,87.5 % of DMSO

# Sample 3 — cell line: Huh-7; concentration: 10 µM; time: 24 h
Compound,viability [%]
CC(C)(N)Cc1ccccc1,102
CCC(=O)O[C@H]1CC[C@H]2[C@@H]3CCC4=CC(=O)CC[C@]4(C)[C@H]3CC[C@]12C,86.3
c1ccc2nc(N3CCNCC3)ccc2c1,93.3

# Sample 4 — cell line: A-375; concentration: 100 µM; time: 18 h
Structure (SMILES),viability [%]
Cl[C@H]1[C@H](Cl)[C@@H](Cl)[C@@H](Cl)[C@H](Cl)[C@H]1Cl,9.84
C[C@]12CCC(=O)C(O)=C1CC[C@@H]1[C@@H]2CC[C@]2(C)C(=O)CC[C@@H]12,80.7
C[C@]12CCC(=O)C=C1CC[C@@H]1[C@@H]2C(=O)C[C@]2(C)C(=O)CC[C@@H]12,118

# Sample 5 — effect on: enzyme activity; action: inhibitor; method: radiometric; concentration: 0.5 µM
# Target: Serine/threonine-protein kinase 33 (STK33, Homo sapiens, UniProt Q9BYT3)
# Sequence of UniProt Q9BYT3 (whole entry, looked up): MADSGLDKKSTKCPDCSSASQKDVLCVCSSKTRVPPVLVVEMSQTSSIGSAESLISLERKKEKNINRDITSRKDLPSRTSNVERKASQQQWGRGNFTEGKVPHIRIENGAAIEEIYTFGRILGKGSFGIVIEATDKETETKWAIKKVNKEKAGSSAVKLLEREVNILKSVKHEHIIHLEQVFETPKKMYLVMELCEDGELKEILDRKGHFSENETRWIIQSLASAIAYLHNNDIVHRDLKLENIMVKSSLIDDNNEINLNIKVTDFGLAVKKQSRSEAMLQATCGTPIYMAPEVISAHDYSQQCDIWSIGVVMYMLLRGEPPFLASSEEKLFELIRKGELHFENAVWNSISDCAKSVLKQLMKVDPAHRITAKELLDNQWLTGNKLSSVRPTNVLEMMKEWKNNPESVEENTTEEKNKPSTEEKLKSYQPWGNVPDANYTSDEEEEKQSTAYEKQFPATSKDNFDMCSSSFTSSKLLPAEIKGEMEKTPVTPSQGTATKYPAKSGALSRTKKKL
SMILES,remaining activity [%]
N#Cc1c(NC(=O)c2cccc3ccccc23)sc2c1CCCC2,93
O=C1C(Cl)=C(N2C(=O)CCC2=O)C(=O)c2ccccc21,91.5
O=C(Nc1cccc(Nc2nccc(Nc3cccc(C(F)(F)F)c3)n2)c1)C1CC1,81.5
Cc1cn(-c2cc(NC(=O)c3ccc(C)c(Nc4nccc(-c5cccnc5)n4)c3)cc(C(F)(F)F)c2)cn1,87.1
CN(C)C[C@H]1CCn2c(c(C3=C(c4cn(C)c5ccccc45)C(=O)NC3=O)c3ccccc32)C1,94.8
C[C@@H]1CCN(C(=O)CC#N)C[C@@H]1N(C)c1ncnc2[nH]ccc12,97.8
COc1cc2ncnc(Nc3ccc(O)c(Br)c3)c2cc1OC,80.7
Cc1cc2ncc(-c3ccccc3)nc2cc1C,94.1
c1ccc(-c2cnc(Nc3ccc(OCCN4CCCC4)cc3)s2)cc1,91
COc1cc2c(cc1OC)-c1[nH]nc(Nc3cccc(F)c3)c1C2,99.5
CCOc1nc(NC(=O)Cc2cc(OC)ccc2OC)cc(N)c1C#N,97.7
CCN(CC)CCNC(=O)c1c(C)[nH]c(/C=C2\C(=O)Nc3ccc(Cl)cc32)c1C,20.6
O=c1cc(-c2cccc3c2Sc2ccccc2S3)oc(N2CCOCC2)c1,93.3
Cc1nc2cc3nc(-c4cccs4)cnc3cc2n1C,91.5
Cn1nc2c3c(cccc31)C(=O)c1ccccc1-2,81.3

# Mixed results — species: mouse; sample: microsomes or S9; concentration: 2 µM; time: 0.5 h
Structure (SMILES),remaining compound
COC1=CC=C2C3Cc4ccc(OC)c5c4C2(CCN3C)C1O5 (stereo not drawn),36.7%
O=C1N=C(O)N=C(O)C1C1c2ccccc2Oc2nc(O)nc(O)c21 (stereo not drawn),93.3%
